# Published values gathered from unrelated publications.
# Each numbered part is a random draw from the data of one study; scales do not carry over between parts.
# Chain of UniProt P57059 (whole entry, looked up): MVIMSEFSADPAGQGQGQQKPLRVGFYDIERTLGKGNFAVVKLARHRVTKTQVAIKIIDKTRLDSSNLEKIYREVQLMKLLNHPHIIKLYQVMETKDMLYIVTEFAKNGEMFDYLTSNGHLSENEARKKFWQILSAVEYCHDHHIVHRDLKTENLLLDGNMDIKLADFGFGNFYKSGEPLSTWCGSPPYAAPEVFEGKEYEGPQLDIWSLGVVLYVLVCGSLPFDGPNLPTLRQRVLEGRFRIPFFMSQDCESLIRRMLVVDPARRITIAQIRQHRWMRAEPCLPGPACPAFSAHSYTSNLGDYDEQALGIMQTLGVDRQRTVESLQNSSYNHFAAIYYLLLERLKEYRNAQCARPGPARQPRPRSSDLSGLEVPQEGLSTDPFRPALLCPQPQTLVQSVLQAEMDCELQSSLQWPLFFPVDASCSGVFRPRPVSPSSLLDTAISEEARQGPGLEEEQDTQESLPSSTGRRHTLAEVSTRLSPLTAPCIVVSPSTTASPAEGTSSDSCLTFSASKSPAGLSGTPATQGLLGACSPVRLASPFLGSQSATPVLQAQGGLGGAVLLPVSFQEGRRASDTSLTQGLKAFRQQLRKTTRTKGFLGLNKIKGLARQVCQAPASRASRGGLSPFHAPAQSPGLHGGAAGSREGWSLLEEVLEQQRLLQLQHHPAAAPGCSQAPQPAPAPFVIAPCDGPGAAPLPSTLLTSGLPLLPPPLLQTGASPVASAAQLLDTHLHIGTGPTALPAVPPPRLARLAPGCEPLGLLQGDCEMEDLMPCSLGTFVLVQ
# Chain of UniProt P16591 (whole entry, looked up): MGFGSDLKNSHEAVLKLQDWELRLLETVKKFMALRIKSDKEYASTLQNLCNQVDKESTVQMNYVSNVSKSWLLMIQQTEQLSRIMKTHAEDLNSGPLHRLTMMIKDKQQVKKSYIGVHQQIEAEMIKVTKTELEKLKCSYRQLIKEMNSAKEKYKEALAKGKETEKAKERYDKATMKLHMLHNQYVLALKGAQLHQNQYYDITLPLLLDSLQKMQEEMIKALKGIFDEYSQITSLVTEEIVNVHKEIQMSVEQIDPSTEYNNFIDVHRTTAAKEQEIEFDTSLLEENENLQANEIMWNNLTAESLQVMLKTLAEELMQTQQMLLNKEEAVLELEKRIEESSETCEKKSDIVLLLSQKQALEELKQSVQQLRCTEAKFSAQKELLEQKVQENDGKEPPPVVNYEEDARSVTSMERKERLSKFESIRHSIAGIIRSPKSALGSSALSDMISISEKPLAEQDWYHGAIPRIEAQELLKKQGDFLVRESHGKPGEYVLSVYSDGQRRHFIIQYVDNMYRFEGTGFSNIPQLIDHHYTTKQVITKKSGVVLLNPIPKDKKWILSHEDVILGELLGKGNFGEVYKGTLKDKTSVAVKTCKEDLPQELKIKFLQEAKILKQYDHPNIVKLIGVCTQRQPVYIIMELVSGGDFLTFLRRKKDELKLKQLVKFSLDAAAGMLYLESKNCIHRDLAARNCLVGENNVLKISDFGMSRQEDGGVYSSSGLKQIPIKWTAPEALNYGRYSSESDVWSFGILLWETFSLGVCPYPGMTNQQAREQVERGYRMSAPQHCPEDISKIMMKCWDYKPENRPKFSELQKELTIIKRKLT
# Chain of UniProt Q8N568 (whole entry, looked up): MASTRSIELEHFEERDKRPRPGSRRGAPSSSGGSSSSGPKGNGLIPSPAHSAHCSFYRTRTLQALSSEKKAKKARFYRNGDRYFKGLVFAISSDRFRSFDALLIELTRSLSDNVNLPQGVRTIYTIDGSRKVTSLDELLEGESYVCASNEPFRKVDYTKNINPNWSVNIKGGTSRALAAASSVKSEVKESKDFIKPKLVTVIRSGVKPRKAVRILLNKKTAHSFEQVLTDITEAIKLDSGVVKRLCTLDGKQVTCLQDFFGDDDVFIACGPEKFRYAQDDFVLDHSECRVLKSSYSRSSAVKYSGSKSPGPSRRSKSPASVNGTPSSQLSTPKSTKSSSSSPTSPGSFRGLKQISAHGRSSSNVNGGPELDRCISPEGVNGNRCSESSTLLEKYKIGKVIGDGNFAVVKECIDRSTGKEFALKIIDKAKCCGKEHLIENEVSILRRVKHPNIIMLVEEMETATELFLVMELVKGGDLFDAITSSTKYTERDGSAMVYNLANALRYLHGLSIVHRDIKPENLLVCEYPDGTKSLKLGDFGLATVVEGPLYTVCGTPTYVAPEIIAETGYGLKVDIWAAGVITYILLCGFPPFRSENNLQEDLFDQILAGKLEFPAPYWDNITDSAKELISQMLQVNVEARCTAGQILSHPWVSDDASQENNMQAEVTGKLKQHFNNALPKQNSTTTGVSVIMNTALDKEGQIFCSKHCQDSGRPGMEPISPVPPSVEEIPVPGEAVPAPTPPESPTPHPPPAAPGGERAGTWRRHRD
# Chain of UniProt P0C1S8 (whole entry, looked up): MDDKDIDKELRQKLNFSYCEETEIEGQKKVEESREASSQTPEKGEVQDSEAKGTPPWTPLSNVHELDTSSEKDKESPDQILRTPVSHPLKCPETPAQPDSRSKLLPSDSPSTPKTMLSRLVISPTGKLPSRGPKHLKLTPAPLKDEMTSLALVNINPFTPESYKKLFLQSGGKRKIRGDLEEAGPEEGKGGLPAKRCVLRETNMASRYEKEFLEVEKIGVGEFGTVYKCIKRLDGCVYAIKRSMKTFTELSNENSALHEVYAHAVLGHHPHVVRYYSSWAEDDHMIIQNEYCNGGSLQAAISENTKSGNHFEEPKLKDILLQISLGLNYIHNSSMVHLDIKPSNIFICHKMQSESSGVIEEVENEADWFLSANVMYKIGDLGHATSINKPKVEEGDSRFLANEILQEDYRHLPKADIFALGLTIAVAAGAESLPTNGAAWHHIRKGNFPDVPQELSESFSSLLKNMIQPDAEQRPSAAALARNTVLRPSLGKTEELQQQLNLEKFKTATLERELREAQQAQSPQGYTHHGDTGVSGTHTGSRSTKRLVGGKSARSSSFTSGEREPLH
# Chain of UniProt Q96J92 (whole entry, looked up): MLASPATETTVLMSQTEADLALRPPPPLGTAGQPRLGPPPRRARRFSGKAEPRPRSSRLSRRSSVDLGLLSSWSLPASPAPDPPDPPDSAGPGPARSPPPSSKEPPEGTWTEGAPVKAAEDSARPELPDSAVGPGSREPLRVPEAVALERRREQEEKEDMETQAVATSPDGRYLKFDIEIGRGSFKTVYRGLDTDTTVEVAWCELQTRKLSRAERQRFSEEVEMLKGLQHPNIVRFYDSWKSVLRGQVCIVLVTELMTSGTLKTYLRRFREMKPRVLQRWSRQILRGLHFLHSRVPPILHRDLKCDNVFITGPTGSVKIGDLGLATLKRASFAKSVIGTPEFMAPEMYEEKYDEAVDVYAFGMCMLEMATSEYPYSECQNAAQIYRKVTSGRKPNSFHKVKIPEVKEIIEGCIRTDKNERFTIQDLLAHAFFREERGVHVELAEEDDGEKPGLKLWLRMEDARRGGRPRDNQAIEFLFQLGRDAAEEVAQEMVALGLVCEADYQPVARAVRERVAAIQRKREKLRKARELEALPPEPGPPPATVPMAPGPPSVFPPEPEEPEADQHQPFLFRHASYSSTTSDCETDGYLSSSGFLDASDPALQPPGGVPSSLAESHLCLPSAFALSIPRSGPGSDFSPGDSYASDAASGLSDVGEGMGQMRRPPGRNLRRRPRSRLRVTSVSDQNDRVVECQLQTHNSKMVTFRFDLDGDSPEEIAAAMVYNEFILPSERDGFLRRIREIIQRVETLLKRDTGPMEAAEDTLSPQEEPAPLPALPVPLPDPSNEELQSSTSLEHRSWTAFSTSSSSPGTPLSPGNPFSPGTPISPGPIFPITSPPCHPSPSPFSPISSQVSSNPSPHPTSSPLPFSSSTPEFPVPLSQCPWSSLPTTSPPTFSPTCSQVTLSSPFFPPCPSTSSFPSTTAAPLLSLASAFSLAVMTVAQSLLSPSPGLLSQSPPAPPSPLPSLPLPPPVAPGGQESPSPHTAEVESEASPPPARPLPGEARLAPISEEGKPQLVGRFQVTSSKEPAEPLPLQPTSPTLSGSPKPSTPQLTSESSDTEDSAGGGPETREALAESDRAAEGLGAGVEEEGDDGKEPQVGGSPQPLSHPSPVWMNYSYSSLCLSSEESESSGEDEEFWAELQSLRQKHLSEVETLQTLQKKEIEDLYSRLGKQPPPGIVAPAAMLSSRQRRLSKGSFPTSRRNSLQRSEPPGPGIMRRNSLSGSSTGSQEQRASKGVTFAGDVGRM

# Set 1
# Species: human
# Matrix: microsomes or S9
# Tested at: 2 µM
# Time: 0.5 h
Compound,remaining compound
CN1C(=O)OC2(C)CC(C)(C)c3ccccc3C12C (stereo not shown),7.76%
CC(NC(C)c1nc(N)nc(N(C)C)n1)c1ccccc1 (stereo not shown),55.4%
OCCOCCN1CCN(c2nc(Cl)cc(Nc3ccc4[nH]ncc4c3)n2)CC1,75%
COc1cc(=O)[nH]cc1C(=O)N1Cc2ccccc2OC(C)(C)C1,> 99%
Cc1cc(C)c(C(=O)c2ccc(C(=O)NC(C)(C)C)cc2)c(C)c1,6.11%
C/C(=C\COc1ccc2ccc(=O)oc2c1)CC[C@H]1C(C)(C)[C@@H](O)CC[C@@]1(C)O,46.7%
c1ccc2c(c1)CC(n1ccnc1-c1cc3n(n1)CCNC3)CO2 (stereo not shown),> 100%
CC(C)N(CCNC(=O)c1ccc2c(c1)N(Cc1cccc(Cl)c1)C(=O)c1ccccc1[S+]2[O-])Cc1ccccc1 (stereo not shown),0.234%
COc1ccc(C2CC(c3cccs3)=NN2S(C)(=O)=O)cc1OC (stereo not shown),11.7%
COc1cc(=O)n(C)cc1C(=O)NCc1nc(C)no1,92.5%
O=S(=O)(c1ccc(F)cc1Cl)N1CC[C@H]2[C@H](C1)OCc1cnnn12,73.3%
CCc1ccccc1NC(=O)CN(C)C(=O)C1CCN(c2cnn(Cc3ccccc3)c(=O)c2)C1 (stereo not shown),14.9%

# Set 2
# Target: Protein kinase C epsilon type (PRKCE, Homo sapiens, UniProt Q02156)
# Chain of UniProt Q02156 (whole entry, looked up): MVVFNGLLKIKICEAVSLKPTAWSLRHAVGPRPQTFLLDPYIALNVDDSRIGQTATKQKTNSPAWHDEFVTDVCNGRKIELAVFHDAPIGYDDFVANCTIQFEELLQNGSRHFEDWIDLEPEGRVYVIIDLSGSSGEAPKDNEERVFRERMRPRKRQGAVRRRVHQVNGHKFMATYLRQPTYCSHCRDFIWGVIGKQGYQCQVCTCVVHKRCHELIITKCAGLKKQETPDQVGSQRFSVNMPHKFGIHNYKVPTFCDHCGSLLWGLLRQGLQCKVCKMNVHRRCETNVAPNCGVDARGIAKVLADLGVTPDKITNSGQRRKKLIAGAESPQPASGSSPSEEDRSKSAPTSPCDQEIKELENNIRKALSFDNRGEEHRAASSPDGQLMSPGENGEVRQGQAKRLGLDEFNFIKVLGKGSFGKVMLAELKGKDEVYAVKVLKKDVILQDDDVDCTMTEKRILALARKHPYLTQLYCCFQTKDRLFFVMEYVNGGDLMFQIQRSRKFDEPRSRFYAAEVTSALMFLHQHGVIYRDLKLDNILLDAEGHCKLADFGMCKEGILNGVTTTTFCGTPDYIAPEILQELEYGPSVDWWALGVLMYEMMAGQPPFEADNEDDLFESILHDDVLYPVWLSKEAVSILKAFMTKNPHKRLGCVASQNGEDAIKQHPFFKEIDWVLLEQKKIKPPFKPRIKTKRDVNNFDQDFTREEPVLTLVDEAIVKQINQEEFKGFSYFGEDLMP
# Effect on: enzyme activity
# Mode: inhibitor
# Tested at: 0.5 µM
# Relative to: control
Structure (SMILES),remaining activity
O=c1cc(N2CCOCC2)oc2c1ccc1ccccc12,89.6%
COc1cc2ncnc(Nc3ccc(OCc4ccccc4)cc3)c2cc1OC,99.4%
CCOc1cc2ncnc(Nc3cccc(Br)c3)c2cc1OCC,94.5%
CS(=O)(=O)CCNCc1ccc(-c2ccc3ncnc(Nc4ccc(OCc5cccc(F)c5)c(Cl)c4)c3c2)o1,98%
CN(C)CCCn1cc(C2=C(c3c[nH]c4ccccc34)C(=O)NC2=O)c2ccccc21,0.493%
Cc1ccc(NC(=O)c2ccc(CN3CCN(C)CC3)cc2)cc1Nc1nccc(-c2cccnc2)n1,97.2%
CCC(=O)Nc1ccc2ncnc(Nc3cccc(Br)c3)c2c1,99.7%
CCN1/C(=C/C(C)=O)Sc2ccc(OC)cc21,95.2%
COc1ccc(-c2cnc3c(-c4ccsc4)cnn3c2)cc1,103%
COc1cc2ncnc(N3CCN(C(=O)Nc4ccc(Oc5ccccc5)cc4)CC3)c2cc1OC,106%
O=C(Nc1ccc(Cl)cc1)c1ccccc1NCc1ccncc1,97%
COc1cc2ncc(-c3ccccc3)nc2cc1OC,87.9%
Cc1nc(Nc2ncc(C(=O)Nc3c(C)cccc3Cl)s2)cc(N2CCN(CCO)CC2)n1,102%
COc1ccc(Cl)cc1NC(=O)Nc1cc(C)nc2ccccc12,99.7%
O=C1NC(=O)/C(=C/c2ccc3nccnc3c2)S1,101%
Cn1cc(/C=C2\C(=O)Nc3ccc(S(N)(=O)=O)cc32)c2ccccc21,77.3%
CC(C)c1nn(-c2c(Cl)cccc2Cl)c2nc(Cc3ccc(OCCO)cc3)[nH]c(=O)c12,90.5%
C[S+]([O-])c1ccc(-c2nc(-c3ccncc3)c(-c3ccc(F)cc3)[nH]2)cc1 (stereo not shown),115%
Nc1[nH]nc2nnc(-c3c(-c4ccccc4)nn4ccccc34)cc12,72.7%
CC(C)[C@H](CO)Nc1nc(Nc2cccc(Cl)c2)c2ncn(C(C)C)c2n1,115%
CC(=O)O/N=C1/C(c2c(O)[nH]c3cc(Br)ccc23)=Nc2ccccc21,86.2%
Cn1cnc2cc3c(Nc4cccc(Br)c4)ncnc3cc21,87.8%

# Set 3
# SMILES: C[C@@H]1CN(c2cc(-c3nn(C)c4ccc(OC5(C)CC5)cc34)ncn2)C[C@H](C)O1
# Tested at: 1 µM
target,test,remaining binding [%]
"FER (Homo sapiens, UniProt P16591)","cell-free assay, competition with immobilised ligand",100
"WEE2 (Homo sapiens, UniProt P0C1S8)","cell-free assay, competition with immobilised ligand",96
"MAPKAPK2 (Homo sapiens, UniProt P49137)","cell-free assay, competition with immobilised ligand",93
"EGFR (Homo sapiens, UniProt P00533, L858R/T790M)","cell-free assay, competition with immobilised ligand",99
"CAMKK2 (Homo sapiens, UniProt Q96RR4)","cell-free assay, competition with immobilised ligand",85
"NEK7 (Homo sapiens, UniProt Q8TDX7)","cell-free assay, competition with immobilised ligand",79
"RIOK3 (Homo sapiens, UniProt O14730)","cell-free assay, competition with immobilised ligand",100
"ERBB4 (Homo sapiens, UniProt Q15303)","cell-free assay, competition with immobilised ligand",96
"SIK1 (Homo sapiens, UniProt P57059)",competition binding,96
"FLT3 (Homo sapiens, UniProt P36888, D835V)","cell-free assay, competition with immobilised ligand",86
"WNK4 (Homo sapiens, UniProt Q96J92)","cell-free assay, competition with immobilised ligand",60
"FLT3 (Homo sapiens, UniProt P36888)","cell-free assay, competition with immobilised ligand",96
"ROCK2 (Homo sapiens, UniProt O75116)","cell-free assay, competition with immobilised ligand",97
"DCLK2 (Homo sapiens, UniProt Q8N568)","cell-free assay, competition with immobilised ligand",100
"IRAK3 (Homo sapiens, UniProt Q9Y616)","cell-free assay, competition with immobilised ligand",89
"NEK6 (Homo sapiens, UniProt Q9HC98)","cell-free assay, competition with immobilised ligand",100
"RET (Homo sapiens, UniProt P07949, M918T)","cell-free assay, competition with immobilised ligand",84
"VRK2 (Homo sapiens, UniProt Q86Y07)","cell-free assay, competition with immobilised ligand",73
"STK39 (Homo sapiens, UniProt Q9UEW8)","cell-free assay, competition with immobilised ligand",70

# Further values, each from its own experiment
# Target: FLT3 ITD human
# Effect on: binding
# Method: KINOMEscan competition
# Tested at: 1000 nM
Structure (SMILES),percent of control
O=C(Nc1ccccc1)Nc1cccc(Oc2ccc3nccn3n2)c1,100%
CN1CCN(C(=O)c2ccc(NC(=O)Nc3ccc(N(C)c4ccnc(Nc5ccc(CS(C)(=O)=O)cc5)n4)cc3)cc2)CC1,0.3%

# Repeated from above (set 3):
target,test,remaining binding [%]
"ROCK2 (Homo sapiens, UniProt O75116)","cell-free assay, competition with immobilised ligand",97
"WEE2 (Homo sapiens, UniProt P0C1S8)","cell-free assay, competition with immobilised ligand",96
"FLT3 (Homo sapiens, UniProt P36888, D835V)","cell-free assay, competition with immobilised ligand",86
"FER (Homo sapiens, UniProt P16591)","cell-free assay, competition with immobilised ligand",100
"RIOK3 (Homo sapiens, UniProt O14730)","cell-free assay, competition with immobilised ligand",100
"NEK7 (Homo sapiens, UniProt Q8TDX7)","cell-free assay, competition with immobilised ligand",79
"EGFR (Homo sapiens, UniProt P00533, L858R/T790M)","cell-free assay, competition with immobilised ligand",99
"CAMKK2 (Homo sapiens, UniProt Q96RR4)","cell-free assay, competition with immobilised ligand",85
"FLT3 (Homo sapiens, UniProt P36888)","cell-free assay, competition with immobilised ligand",96
